# Results collected from several papers.
# A part holds a random share of what one study measured. “And” joins repeats or separate records; there may be more than shown.
# UniProt Q9UPZ9, sequence (whole entry, looked up): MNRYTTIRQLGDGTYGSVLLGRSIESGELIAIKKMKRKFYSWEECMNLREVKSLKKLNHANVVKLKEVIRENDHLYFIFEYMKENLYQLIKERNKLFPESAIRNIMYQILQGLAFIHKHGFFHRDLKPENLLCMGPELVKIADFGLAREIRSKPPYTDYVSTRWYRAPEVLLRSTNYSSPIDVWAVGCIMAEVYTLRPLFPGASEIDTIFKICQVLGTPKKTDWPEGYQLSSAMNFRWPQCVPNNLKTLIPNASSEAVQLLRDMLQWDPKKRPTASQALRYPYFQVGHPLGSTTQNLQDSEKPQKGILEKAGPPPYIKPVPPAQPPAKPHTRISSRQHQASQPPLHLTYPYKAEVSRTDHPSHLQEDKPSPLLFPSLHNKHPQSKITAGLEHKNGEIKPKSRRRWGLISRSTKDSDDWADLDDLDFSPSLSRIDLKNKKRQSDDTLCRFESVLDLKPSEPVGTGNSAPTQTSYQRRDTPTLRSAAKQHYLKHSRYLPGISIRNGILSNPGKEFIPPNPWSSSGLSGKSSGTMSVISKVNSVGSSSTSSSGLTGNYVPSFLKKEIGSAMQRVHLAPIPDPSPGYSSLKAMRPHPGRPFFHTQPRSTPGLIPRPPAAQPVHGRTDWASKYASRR
# UniProt Q8TD08, sequence (whole entry, looked up): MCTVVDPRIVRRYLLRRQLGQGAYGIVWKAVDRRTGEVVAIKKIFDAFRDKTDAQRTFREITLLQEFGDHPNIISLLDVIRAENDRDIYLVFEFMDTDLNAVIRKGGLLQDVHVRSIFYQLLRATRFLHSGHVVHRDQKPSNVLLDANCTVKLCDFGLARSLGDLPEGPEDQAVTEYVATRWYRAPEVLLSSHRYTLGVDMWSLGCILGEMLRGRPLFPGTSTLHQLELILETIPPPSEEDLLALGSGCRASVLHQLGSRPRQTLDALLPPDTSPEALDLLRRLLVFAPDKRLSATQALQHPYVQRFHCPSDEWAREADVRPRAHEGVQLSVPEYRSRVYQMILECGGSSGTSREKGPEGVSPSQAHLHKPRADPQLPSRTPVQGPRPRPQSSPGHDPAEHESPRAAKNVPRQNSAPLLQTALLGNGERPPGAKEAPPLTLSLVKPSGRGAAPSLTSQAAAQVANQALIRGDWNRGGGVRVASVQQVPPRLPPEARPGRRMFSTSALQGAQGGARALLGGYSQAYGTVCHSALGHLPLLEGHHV
# UniProt Q8IVW4, sequence (whole entry, looked up): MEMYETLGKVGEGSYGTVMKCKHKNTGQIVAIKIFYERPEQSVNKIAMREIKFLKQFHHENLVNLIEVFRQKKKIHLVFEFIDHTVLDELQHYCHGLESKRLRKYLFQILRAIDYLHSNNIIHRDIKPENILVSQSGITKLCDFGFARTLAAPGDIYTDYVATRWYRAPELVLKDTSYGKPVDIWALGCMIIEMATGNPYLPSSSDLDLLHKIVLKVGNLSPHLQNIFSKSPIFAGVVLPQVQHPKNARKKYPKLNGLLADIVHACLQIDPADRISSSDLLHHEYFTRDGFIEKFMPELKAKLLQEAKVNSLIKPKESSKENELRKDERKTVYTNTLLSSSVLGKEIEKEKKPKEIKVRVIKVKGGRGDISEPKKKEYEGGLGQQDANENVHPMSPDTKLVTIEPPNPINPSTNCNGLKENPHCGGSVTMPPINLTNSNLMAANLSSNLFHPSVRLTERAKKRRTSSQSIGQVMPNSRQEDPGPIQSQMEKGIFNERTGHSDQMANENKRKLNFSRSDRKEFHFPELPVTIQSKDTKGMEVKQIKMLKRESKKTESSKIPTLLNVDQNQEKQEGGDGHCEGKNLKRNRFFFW
# UniProt Q52WX2, sequence (whole entry, looked up): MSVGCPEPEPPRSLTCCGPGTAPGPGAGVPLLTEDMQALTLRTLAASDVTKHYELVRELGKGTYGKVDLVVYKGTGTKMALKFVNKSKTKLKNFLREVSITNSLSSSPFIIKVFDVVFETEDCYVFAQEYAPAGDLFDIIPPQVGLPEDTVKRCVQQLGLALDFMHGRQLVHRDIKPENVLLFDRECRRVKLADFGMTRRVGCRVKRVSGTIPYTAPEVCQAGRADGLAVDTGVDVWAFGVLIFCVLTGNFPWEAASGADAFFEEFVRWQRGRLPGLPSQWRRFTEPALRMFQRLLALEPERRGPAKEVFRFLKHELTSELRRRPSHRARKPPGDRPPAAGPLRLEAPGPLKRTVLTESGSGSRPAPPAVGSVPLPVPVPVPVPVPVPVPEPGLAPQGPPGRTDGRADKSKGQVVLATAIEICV
# UniProt Q13523, sequence (whole entry, looked up): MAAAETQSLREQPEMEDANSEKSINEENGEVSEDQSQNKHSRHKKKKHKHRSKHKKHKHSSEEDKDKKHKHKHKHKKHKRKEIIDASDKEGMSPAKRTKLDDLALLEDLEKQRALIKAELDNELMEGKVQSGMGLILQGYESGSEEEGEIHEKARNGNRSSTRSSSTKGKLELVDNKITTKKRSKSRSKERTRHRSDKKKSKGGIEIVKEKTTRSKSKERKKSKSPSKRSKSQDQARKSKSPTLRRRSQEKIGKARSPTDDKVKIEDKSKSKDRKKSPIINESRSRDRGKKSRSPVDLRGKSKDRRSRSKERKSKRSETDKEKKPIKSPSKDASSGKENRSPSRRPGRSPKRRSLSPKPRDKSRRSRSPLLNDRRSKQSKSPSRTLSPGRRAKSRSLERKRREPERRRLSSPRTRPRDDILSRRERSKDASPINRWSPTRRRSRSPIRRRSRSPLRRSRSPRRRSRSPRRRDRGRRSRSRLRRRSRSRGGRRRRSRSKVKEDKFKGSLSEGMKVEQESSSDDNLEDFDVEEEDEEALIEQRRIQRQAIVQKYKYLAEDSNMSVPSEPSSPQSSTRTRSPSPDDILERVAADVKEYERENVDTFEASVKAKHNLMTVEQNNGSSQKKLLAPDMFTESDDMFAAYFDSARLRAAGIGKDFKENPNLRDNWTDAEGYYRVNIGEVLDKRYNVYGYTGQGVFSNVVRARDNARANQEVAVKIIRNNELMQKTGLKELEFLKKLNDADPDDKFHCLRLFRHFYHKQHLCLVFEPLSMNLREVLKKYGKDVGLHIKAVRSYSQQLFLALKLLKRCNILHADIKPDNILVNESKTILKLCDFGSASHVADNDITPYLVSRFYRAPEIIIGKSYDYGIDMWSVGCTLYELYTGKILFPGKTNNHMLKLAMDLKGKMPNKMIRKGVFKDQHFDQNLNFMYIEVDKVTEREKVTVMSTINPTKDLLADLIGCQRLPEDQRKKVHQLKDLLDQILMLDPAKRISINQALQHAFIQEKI
# UniProt Q8TDR2, sequence (whole entry, looked up): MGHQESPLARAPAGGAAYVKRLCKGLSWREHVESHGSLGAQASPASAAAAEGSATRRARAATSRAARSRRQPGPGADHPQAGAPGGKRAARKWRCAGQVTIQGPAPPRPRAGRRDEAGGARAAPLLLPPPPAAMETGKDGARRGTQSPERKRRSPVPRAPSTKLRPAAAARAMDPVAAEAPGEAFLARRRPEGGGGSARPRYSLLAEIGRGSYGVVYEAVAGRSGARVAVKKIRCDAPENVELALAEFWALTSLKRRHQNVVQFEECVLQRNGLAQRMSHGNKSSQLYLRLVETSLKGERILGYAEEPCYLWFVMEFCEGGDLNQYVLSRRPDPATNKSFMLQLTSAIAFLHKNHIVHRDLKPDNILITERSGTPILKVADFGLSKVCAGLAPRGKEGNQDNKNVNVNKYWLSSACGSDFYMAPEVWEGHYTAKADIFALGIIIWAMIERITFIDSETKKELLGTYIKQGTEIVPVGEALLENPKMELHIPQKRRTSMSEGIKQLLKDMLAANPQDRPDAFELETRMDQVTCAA
# UniProt O14965, sequence (whole entry, looked up): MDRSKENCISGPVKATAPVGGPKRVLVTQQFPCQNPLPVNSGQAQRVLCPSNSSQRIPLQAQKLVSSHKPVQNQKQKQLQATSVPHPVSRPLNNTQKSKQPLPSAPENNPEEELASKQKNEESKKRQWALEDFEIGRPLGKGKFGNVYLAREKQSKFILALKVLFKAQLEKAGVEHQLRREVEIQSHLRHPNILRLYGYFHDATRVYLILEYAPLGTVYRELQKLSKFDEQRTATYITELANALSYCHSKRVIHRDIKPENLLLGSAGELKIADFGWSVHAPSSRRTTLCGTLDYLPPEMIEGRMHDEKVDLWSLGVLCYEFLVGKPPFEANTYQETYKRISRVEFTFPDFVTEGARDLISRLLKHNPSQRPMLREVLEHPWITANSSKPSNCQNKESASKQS
# UniProt Q8NI60, sequence (whole entry, looked up): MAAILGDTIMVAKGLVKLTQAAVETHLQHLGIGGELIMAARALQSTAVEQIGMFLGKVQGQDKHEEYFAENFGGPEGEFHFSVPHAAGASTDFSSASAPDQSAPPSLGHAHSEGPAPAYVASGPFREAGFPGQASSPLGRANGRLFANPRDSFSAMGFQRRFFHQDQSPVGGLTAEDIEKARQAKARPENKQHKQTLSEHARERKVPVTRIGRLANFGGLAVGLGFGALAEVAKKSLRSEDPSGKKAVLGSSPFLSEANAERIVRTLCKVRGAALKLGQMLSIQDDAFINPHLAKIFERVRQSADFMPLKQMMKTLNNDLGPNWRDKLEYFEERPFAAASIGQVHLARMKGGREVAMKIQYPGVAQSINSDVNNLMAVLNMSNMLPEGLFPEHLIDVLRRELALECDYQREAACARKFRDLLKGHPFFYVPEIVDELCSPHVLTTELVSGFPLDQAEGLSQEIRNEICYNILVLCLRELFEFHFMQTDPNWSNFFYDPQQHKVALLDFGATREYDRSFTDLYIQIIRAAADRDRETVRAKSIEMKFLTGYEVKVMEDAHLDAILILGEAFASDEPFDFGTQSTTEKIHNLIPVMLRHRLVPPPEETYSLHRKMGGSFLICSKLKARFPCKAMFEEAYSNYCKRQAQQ

# Block 1
# Target: Tyrosine-protein kinase ZAP-70 (ZAP70, Homo sapiens, UniProt P43403)
# Read-out: enzyme activity
# Mode: inhibitor
# Tested at: 0.5 µM
# Reference: control
# Residues (P43403 1-619): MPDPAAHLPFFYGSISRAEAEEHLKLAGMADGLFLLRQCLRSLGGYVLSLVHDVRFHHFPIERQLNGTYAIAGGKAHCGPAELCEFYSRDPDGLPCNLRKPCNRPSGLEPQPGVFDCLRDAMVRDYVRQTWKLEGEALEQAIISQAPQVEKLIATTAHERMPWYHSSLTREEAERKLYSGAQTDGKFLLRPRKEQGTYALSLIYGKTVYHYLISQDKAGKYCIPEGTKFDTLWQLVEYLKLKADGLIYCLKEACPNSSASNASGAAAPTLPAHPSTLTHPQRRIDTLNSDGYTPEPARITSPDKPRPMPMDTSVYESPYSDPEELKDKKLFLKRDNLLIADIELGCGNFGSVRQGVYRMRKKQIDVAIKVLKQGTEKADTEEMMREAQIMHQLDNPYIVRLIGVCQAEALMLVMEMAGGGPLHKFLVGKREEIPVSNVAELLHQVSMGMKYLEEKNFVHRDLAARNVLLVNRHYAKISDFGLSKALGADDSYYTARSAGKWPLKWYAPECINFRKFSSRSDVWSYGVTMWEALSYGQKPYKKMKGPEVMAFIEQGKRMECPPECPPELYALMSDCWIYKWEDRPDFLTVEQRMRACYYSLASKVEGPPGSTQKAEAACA
SMILES,remaining activity
O=Nc1c(-c2c(O)[nH]c3ccccc23)[nH]c2ccccc12,95.6%
c1cc(-c2cnn3cc(-c4ccc(OCCN5CCCCC5)cc4)cnc23)ccn1,94.5%
NC(=O)c1ccc(-c2nc(-c3ccc4c(c3)OCCO4)c(-c3ccccn3)[nH]2)cc1,107%
COc1cc2c(N3CCN(C(=O)Nc4ccc(OC(C)C)cc4)CC3)ncnc2cc1OCCCN1CCCCC1,116%
N#C/C(=C(/N)SC1C=CC=CC1)c1cccc(C(O)c2ccncc2)c1 (stereo not drawn),101%
CCCCc1c(-c2ccc(O)cc2)[nH]c2nccnc12,94.4%
CC(C)n1cnc2c(Nc3cccc(Cl)c3)nc(NCCO)nc21,98.3%
O=C(O)/C=C/c1cc(Br)c(Br)c(Br)c1Br,98.5%

# Block 2
# Cell line: HaCaT
# Tested at: 100 µM
# Time: 18 h
SMILES,viability [%]
OCCOCCN1CCN(C(c2ccccc2)c2ccc(Cl)cc2)CC1 (stereo not drawn),110
CC(=O)N[C@@H](CCC(N)=O)C(=O)O,108
O=C(CO)[C@@H](O)[C@H](O)[C@H](O)CO,116
COc1ccc(C(=O)NCc2ccc(OCCN(C)C)cc2)cc1OC,82.2
O=c1ccc2ccc(OCCCCN3CCN(c4cccc5sccc45)CC3)cc2[nH]1,23.5
C[N+](C)(C)CCO,98.6
O=C(O)c1ccccc1OP(=O)(O)O,113
Cc1nnc(C(=O)NC(C)(C)c2nc(C(=O)NCc3ccc(F)cc3)c(O)c(=O)n2C)o1,111

# Block 3
# Structure (SMILES): CCOc1ccc(Nc2c3c(nc4ccccc24)CCC3)cc1
cell line,assay,conditions,cytotoxicity
HEK293,resazurin,"6.66 µM, 10% serum",12% and 13%
HEK293,resazurin,"0.0066 µM, 10% serum",3% and -1%
PMA-differentiated THP-1 macrophages,,"4 µM, 64 h",12% and 8%
HepG2,resazurin,"66.66 µM, 48 h",100%
HepG2,resazurin,"0.66 µM, 48 h",10% and 4%
RAW264.7,resazurin,"0.00332 µM, 64 h",-7% and -6%
J774.1,resazurin,"0.00332 µM, 64 h",-4% and -5%

# Block 4
# Structure (SMILES): CCCOc1ccc([C@@H]2[C@@H](C(=O)O)[C@H](c3ccc4c(c3)OCO4)CN2CC(=O)Nc2c(CC)cccc2CC)cc1
# Technique: competition with immobilised ligand
# Tested at: 1 µM
target,assay,remaining binding [%]
"Aurora kinase A (AURKA, Homo sapiens, UniProt O14965)",cell-free assay,94
"Serine/threonine-protein kinase ICK (CILK1, Homo sapiens, UniProt Q9UPZ9)",binding,100
"Serine/threonine-protein kinase SBK1 (SBK1, Homo sapiens, UniProt Q52WX2)",cell-free assay,81
"Mitogen-activated protein kinase 15 (MAPK15, Homo sapiens, UniProt Q8TD08)",cell-free assay,100
"Epidermal growth factor receptor (EGFR, Homo sapiens, UniProt P00533, L858R)",cell-free assay,87
"Serine/threonine-protein kinase 17B (STK17B, Homo sapiens, UniProt O94768)",cell-free assay,93
"Serine/threonine-protein kinase PRP4 homolog (PRPF4B, Homo sapiens, UniProt Q13523)",cell-free assay,100
"Serine/threonine-protein kinase 35 (STK35, Homo sapiens, UniProt Q8TDR2)",cell-free assay,98
"Atypical kinase COQ8A, mitochondrial (COQ8A, Homo sapiens, UniProt Q8NI60)",cell-free assay,100
"Tyrosine-protein kinase SYK (SYK, Homo sapiens, UniProt P43405)",cell-free assay,100
"Serine/threonine-protein kinase WNK2 (WNK2, Homo sapiens, UniProt Q9Y3S1)",cell-free assay,88
"Cyclin-dependent kinase-like 3 (CDKL3, Homo sapiens, UniProt Q8IVW4)",cell-free assay,95
"ALK tyrosine kinase receptor (ALK, Homo sapiens, UniProt Q9UM73, C1156Y)",cell-free assay,79

# Repeated from above (block 3):
cell line,assay,conditions,cytotoxicity
RAW264.7,resazurin,"0.00332 µM, 64 h",-7% and -6%
PMA-differentiated THP-1 macrophages,,"4 µM, 64 h",12% and 8%
